Results pooled from the literature.

Cc1ncc2n1-c1ccc(Cl)cc1C(c1ccccc1F)=NC2
Tmax (human CYP3A5*3/*7, serum; oral, together with: ketoconazole 400 mg): 0.5 h

CCC(=O)C(C[C@H](C)N(C)C)(c1ccccc1)c1ccccc1
Tmax (human, plasma; oral, 11 mg): 3 h

CN(C)CCc1c[nH]c2ccccc12
Tmax (healthy human, plasma; intravenous infusion, 9 to 21.5 mg, median across cohorts): ~0.167 h

CC(C)C[C@H](NC(=O)CNC(=O)c1cc(Cl)ccc1Cl)B(O)O
Tmax (human, plasma; oral, 4 mg, day 1, alone): 1.49 h

COc1ccc(C[C@@H]2NC(=O)[C@H]([C@@H](C)O)NC(=O)[C@@H]3[C@@H]4CCN3C(=O)[C@@H]3Cc5cn(c6ccc(F)cc56)CCCCCCN(Cc5ccc(cc5)CCNC(=O)[C@]5(C)CCCN5C2=O)C(=O)CCC(=O)N[C@@H](C)C(=O)N[C@H](CNC(=O)CCCCC[N+](C)(C)C)C(=O)N[C@@H](Cc2cccc(c2)CNC(=O)CO4)C(=O)N3)cc1
Tmax (fasted healthy humans, plasma; oral, 300 mg single dose, with 1800 mg Labrasol, median): 1.5 h

CCCCCOc1ccc(-c2cc(-c3ccc(C(=O)N[C@H]4C[C@@H](O)[C@@H](O)NC(=O)[C@@H]5[C@@H](O)[C@@H](C)CN5C(=O)[C@H]([C@H](O)CC(N)=O)NC(=O)[C@H]([C@H](O)[C@@H](O)c5ccc(O)c(OS(=O)(=O)O)c5)NC(=O)[C@@H]5C[C@@H](O)CN5C(=O)[C@H]([C@@H](C)O)NC4=O)cc3)no2)cc1
Tmax (human children aged 12-16 years, plasma; intravenous, 3 mg/kg once daily, day 7, geometric mean): 1.3 h

O=c1[nH]c(Cc2ccccn2)nc2c1cnn2C1CCOCC1
Tmax (healthy male human, plasma; oral, 100 mg, median): 0.86 h

O[C@H]1CCCN[C@@H]1CCCn1cnc2c(Cl)c(Cl)ccc21
Tmax (healthy human volunteers, plasma; oral, 25 mg, day 1, median): 3.5 h

CC[C@@]1(O)C(=O)OCc2c1cc1n(c2=O)Cc2cc3c(CN(C)C)c(O)ccc3nc2-1
Tmax (human patients, plasma; oral, 8 mg weekly, median, together with: pazopanib 800 mg daily): 1.28 h

For quick reference, copied from above:
Cc1ncc2n1-c1ccc(Cl)cc1C(c1ccccc1F)=NC2
Tmax (human CYP3A5*3/*7, serum; oral, together with: ketoconazole 400 mg): 0.5 h
